Results pooled from the literature.
Lines come from different studies, so protocols differ.
UniProt Q13470, sequence (whole entry, looked up): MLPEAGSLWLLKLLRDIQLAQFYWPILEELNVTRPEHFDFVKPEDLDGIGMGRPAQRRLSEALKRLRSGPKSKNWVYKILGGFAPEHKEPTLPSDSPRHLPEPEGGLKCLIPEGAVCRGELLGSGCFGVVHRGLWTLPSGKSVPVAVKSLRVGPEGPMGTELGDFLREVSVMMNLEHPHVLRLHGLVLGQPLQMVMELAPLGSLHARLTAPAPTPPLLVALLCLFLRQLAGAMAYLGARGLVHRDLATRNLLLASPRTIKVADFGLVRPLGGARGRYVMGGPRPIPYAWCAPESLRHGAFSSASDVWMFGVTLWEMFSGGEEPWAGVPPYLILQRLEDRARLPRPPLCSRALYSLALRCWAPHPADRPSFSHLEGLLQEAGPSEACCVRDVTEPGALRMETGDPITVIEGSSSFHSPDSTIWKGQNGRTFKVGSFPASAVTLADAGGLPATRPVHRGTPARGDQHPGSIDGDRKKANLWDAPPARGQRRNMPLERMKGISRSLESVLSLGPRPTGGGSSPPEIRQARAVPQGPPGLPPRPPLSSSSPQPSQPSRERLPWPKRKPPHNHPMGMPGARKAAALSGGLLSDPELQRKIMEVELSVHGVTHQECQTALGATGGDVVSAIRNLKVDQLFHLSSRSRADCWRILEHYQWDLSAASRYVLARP
UniProt Q16828, sequence (whole entry, looked up): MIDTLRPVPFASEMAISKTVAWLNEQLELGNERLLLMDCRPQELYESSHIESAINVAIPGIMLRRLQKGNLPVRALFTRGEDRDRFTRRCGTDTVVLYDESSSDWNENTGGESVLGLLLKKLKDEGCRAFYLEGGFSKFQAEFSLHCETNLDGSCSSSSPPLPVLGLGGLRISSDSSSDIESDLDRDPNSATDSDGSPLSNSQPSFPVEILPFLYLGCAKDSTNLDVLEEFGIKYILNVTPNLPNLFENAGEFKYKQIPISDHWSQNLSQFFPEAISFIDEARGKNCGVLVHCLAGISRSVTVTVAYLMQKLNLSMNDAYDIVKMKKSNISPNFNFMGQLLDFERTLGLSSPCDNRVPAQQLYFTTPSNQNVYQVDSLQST

Structure (SMILES) = C[C@@H](O)[C@@H](CO)NC(=O)[C@@H](CCCNC(=N)N)NC(=O)[C@@H]1CCCN1C(=O)[C@@H]1CSSC[C@H](NC(=O)[C@H](Cc2ccccc2)NC(=O)CN2CCN(CC(=O)O)CCN(CC(=O)O)CCN(CC(=O)O)CC2)C(=O)N[C@@H](Cc2ccc(O)cc2)C(=O)N[C@@H](Cc2ccccc2)C(=O)N[C@@H](CCC(N)=O)C(=O)N[C@@H](CC(N)=O)C(=O)N1 [gallium-68 labelled]; test system = Wistar rat, muscle; conditions = intravenous, 8 MBq, 120 min, group mean; endpoint = tissue uptake; result = 0.07 %ID/g
Structure (SMILES) = C[C@]1(CO)Cc2ncn(-c3ccc(C#N)c(Cl)c3)c2C(=O)O1; test system = human; conditions = 0.7 mg single dose; endpoint = subjects with drug-related headache; result = 0%
Structure (SMILES) = Cn1cncc1-c1c(F)cncc1NC(=O)c1c(N)nn2cc(F)cnc12; test system = human patients; conditions = oral, 80 mg once daily; endpoint = grade ≥3 neutrophil decrease incidence; result = 0%
Structure (SMILES) = CO[C@H]1C[C@@H]2CC[C@@H](C)[C@@](O)(O2)C(=O)C(=O)N2CCCC[C@H]2C(=O)O[C@H]([C@H](C)C[C@@H]2CC[C@@H](OC(=O)NCCOCCOCCOCCOCCOCCOCCOCCOCCC(=O)N3CCc4cc(Cn5nc(-c6ccc7oc(N)nc7c6)c6c(N)ncnc65)ccc4C3)[C@H](OC)C2)C[C@@H](O)[C@H](C)/C=C(\C)[C@@H](O)[C@@H](OC)C(=O)[C@H](C)C[C@H](C)/C=C/C=C/C=C/1C; test system = patients with advanced solid tumours; conditions = intravenous, 8 mg weekly, grade 3 or higher; endpoint = dysgeusia incidence; result = 0%
Structure (SMILES) = COc1ccc(N2C(=O)N(c3c(C)cccc3Cl)Cc3cnc(Nc4ccc(C5CCN(C)CC5)cc4OC)nc32)nc1; target or system = TNK1 (Homo sapiens, UniProt Q13470); test = kinase activity; conditions = 0.5 µM; endpoint = inhibition; result = 72%
Structure (SMILES) = O=C(Nc1ccccc1)C1CCN(C(=O)Oc2cccnc2)CC1; test system = healthy women; conditions = oral, 20 mg, 7 days; endpoint = Gastrointestinal disorders adverse events; result = 21.4%
Structure (SMILES) = C[C@H]1CN(c2n[nH]c3nc(N[C@H]4CC[C@H](NS(=O)(=O)CCC(F)(F)F)CC4)ncc23)CCO1; target or system = Large ribosomal subunit protein uL5 (Homo sapiens, UniProt P62913); test = Kinobeads competition, measured: RPL11; conditions = 0.032 µM, unit not given; how to read = reference: vehicle; endpoint = remaining binding; result = 1.08
Structure (SMILES) = COc1cc(Nc2ncc(F)c(Nc3ccc4c(n3)NC(=O)C(C)(C)O4)n2)cc(OC)c1OC; target or system = Dual specificity protein phosphatase 6 (Homo sapiens, UniProt Q16828); test = enzyme activity, inhibitor; endpoint = IC50; result = > 10 µM
Structure (SMILES) = CC[C@H](C)[C@H](NC(=O)[C@H](Cc1ccccc1)NC(=O)[C@H](CCC(=O)O)NC(=O)[C@H](CCCNC(=N)N)NC(=O)[C@H](C)NC(=O)[C@H](C)NC(=O)[C@H](CCC(N)=O)NC(=O)[C@H](CCC(=O)O)NC(=O)[C@H](CCC(=O)O)NC(=O)[C@H](CC(C)C)NC(=O)[C@H](Cc1ccc(O)cc1)NC(=O)[C@H](CO)NC(=O)[C@H](CO)NC(=O)[C@@H](NC(=O)[C@H](CC(=O)O)NC(=O)[C@H](CO)NC(=O)[C@@H](NC(=O)[C@H](Cc1ccccc1)NC(=O)[C@@H](NC(=O)CNC(=O)[C@H](CCC(=O)O)NC(=O)[C@H](C)NC(=O)CCc1c[nH]cn1)[C@@H](C)O)[C@@H](C)O)C(C)C)C(=O)N[C@@H](C)C(=O)N[C@@H](Cc1c[nH]c2ccccc12)C(=O)N[C@@H](CC(C)C)C(=O)N[C@H](C(=O)N[C@@H](CCCNC(=N)N)C(=O)NCC(=O)N[C@@H](CCCNC(=N)N)C(=O)N[C@@H](CCCCNC(=O)COCCOCCNC(=O)COCCOCCNC(=O)CC[C@H](NC(=O)CCCCCCCCCCCCCCCCC(=O)O)C(=O)O)C(=O)NCC(=O)NCC(=O)N[C@@H](CO)C(=O)N[C@@H](CCCCNc1c(NCCCCCN(O)C(=O)CCC(=O)NCCCCCN(O)C(=O)CCC(=O)NCCCCCN(O)C(C)=O)c(=O)c1=O)C(=O)O)C(C)C [zirconium-89 labelled]; test system = rat, heart; conditions = sc, 3 nmol/kg, 72 h, ex vivo; endpoint = tissue uptake; result = 0.07 %ID/g
Structure (SMILES) = COc1ccc2nc3cc(Cl)ccc3c(Nc3cc(CN4CCCC4)c(O)c(CN4CCCC4)c3)c2n1; test system = mouse, blood; conditions = oral, 57 mg/kg, tolerability, mean; endpoint = aspartate aminotransferase; result = 49.3 U/L
Structure (SMILES) = CN1CC[C@@H](c2c(O)cc(O)c3c(=O)cc(-c4ccc(C(F)(F)F)cc4Cl)oc23)[C@@H]1CO; test = measured: Sepsis; test system = B-cell malignancies or AML; conditions = oral, 50 mg, continuous dosing; endpoint = patients with adverse event; result = 0%
Structure (SMILES) = COc1ccnc(C(=O)N[C@H]2COC(=O)[C@H](Cc3ccccc3)[C@@H](OC(=O)C(C)C)[C@H](C)OC2=O)c1OCOC(=O)C(C)C; test = developmental toxicity; test system = New Zealand white rabbit, female; conditions = highest dose tested; endpoint = NOAEL; result = 495 mg/kg/day
Structure (SMILES) = CCC[C@@](N)(CO)CCc1ccc(OCCCCCC(C)C)cc1; test system = hound dogs, male; conditions = intravenous, 0.25 mg/kg, geometric mean; endpoint = AUC(0-last); result = 0.413 µM·h
Structure (SMILES) = Cc1cc(C)c(CNC(=O)c2cc(Cl)c3c(c2C)O[C@@](C)([C@H]2CC[C@H](N(C)C)CC2)O3)c(=O)[nH]1; test system = relapsed/refractory NHL patients; conditions = dose not given, trial, safety set, treatment-related TEAE grade 5; endpoint = incidence of tumour lysis syndrome; result = 0%
Structure (SMILES) = COc1ccc([C@@H](O)c2cc(-c3ncnc4cc(N5CCOCC5)ccc34)c(F)cc2Cl)nn1; test system = patients, advanced solid tumours; conditions = oral, 300 mg twice daily, treatment-emergent, with: avelumab; endpoint = metabolism, nutrition disorders incidence; result = 4%
Structure (SMILES) = CC[C@H](C)[C@@H]1NC(=O)[C@@H]2CCCN2C(=O)[C@H](CC(C)C)NC(=O)[C@H](CC(C)C)NC(=O)CNC(=O)[C@@H](NC(=O)[C@@H](NC(=O)[C@H](CC(=O)O)NC(=O)CNC(=O)[C@@H](NC(=O)[C@H](C)NC(=O)CNC(=O)[C@H](CCCCN)NC(=O)[C@H](CC(C)C)NC(=O)[C@H](CC(C)C)NC(=O)[C@H](CCCCN)NC(=O)CNC(=O)[C@@H](NC(=O)[C@@H](N)CC(C)C)C(C)C)C(C)C)C(C)C)CSSC[C@@H](C(=O)O)NC1=O; test = RNA-seq, measured: Snhg11 mRNA; test system = mouse traumatic brain injury, frontal cortex and hippocampus; conditions = dose not given; how to read = reference: TBI plus compound vs TBI; endpoint = log2 fold change; result = 0.635
Structure (SMILES) = CCc1ccc(CC/C=C/c2ccc3c(c2)C(=O)CC3)cc1; test system = Sprague-Dawley rat, male; conditions = oral, 450 mg/kg/day, 14 days; endpoint = Urea; result = 5 mM
Structure (SMILES) = COc1cc2c(Oc3ccc4[nH]c(C)cc4c3F)ccnc2cc1OCC1(N)CC1; test system = paediatric refractory sarcoma patients; conditions = 10 mg; endpoint = T-wave abnormality incidence; result = 50%
Structure (SMILES) = C=CC(=O)Nc1cc(Nc2nccc(Nc3cc(Cl)c(F)cc3C(C)(C)O)n2)c(OC)cc1N1CC[C@@H](N(C)C)C1; test system = human patients; conditions = oral, 100 mg, treatment-emergent adverse events; endpoint = patients with pneumonia; result = 11.1%
